Measured values pooled from the literature.
Each numbered part is a random draw from the data of one study; scales do not carry over between parts. Changes are numbered by the printed parent chain.

Study 1
Target: Centromere-binding protein 1, full length, N-terminal tag (CBF1, Saccharomyces cerevisiae, UniProt P17106, residues 1-351)
Chain of UniProt P17106 (whole entry, looked up): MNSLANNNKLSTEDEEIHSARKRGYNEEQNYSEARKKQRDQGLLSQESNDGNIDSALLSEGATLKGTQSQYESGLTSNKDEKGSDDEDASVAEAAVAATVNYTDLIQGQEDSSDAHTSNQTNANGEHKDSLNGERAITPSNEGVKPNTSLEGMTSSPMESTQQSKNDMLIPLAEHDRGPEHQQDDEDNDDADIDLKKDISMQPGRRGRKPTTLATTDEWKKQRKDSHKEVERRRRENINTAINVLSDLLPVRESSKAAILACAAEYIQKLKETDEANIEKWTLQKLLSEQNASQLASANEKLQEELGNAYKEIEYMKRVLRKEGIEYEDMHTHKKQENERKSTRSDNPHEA
Method: protein-binding microarray
Molecule type: double-stranded DNA, one strand shown
Matrix: in vitro
Concentration: 0.8 µM
Notes: whole 60-bp probe, no competitor
Direction: higher = stronger binding
Shared flanks, not repeated: … GTCTTGATTCGCTTGACGCTGCTG
Sequence	fluorescence intensity [a.u.]
GAAAAGTCAGCACGTGATCTGCTAAGAAATCCGTAG	23300
GAAAAGCATTCTGATCCCGTGTGCTATTATGCTTAG	1170
CTATCAGACCCTTACATCAGCAGCAGCACGTTCTTC	628
CTAATACAACAATGTCACCTTACACGAGCAGAGTTC	566
CTATTGCTTCGTCATCACCACCTTTCTCTTTTATTC	528
CTAGATGCCCTCCCCCACGTTATTGTTGTATAATTC	519
GAAAAGATCTGTCATCAGTTGTTTTGCGTGAAATAG	566
GAACTGTAAGTTGATTGCGTGGGACGTCTAGCGTAG	501
GAATTGCATACACGTGACGGATCACAACAACCCTAG	16200
GAAAATCAAAAGGATGACGTCAACAAAAAACACTAG	520
CTATTGGACTTACTATACCTGACGGTCCACGGGTTC	589
CCTAACTACTATAACCACGTTACATAGCTTCGTACA	652
CTATAGGGATATCTGCACATGGGGCCTCGAGCATTC	575
CCTAACTACTATAGTGATGAGATATAGCTTCGTACA	532
GAACTCTAGTCACGTGGTGCCTTTTTTTCCCATTAG	25700
CCTAACTACTATAGTGGCGTGATATAGCTTCGTACA	943
CTATAATATGGTCATCTGACCATGGTGACATAATTC	6980
CCTAACTACTATAGCCACGTGCTATAGCTTCGTACA	6420
CTAAGTGCGTGACATCAGTATGCGCTTTGGATGTTC	724
CTAGCGTACACCTGTCATGCGTTCCTTAGTGCCTTC	655
GAAGAGGAAGCCCGTCACGTGGCTGCGCTGTCTTAG	11700

Study 2
Target: ABI1, truncated, D143A, DHFR fusion (Arabidopsis thaliana)
Method: DHFR PCA, deep sequencing
Matrix: yeast
Notes: methotrexate growth selection, single substitutions
With: (+)-ABA 710 µM
Baseline: wild-type fitted maximum
Direction: higher = stronger binding
Starting sequence: PYL1, truncated, DHFR fusion (Arabidopsis thaliana); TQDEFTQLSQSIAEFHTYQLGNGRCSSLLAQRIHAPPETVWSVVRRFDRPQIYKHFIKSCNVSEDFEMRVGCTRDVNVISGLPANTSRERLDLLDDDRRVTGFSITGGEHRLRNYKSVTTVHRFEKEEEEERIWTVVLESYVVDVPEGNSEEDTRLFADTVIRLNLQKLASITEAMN
Variant	relative binding score [%]
D96V	72.3
E4F	91.6
K168Q	104
E152R	96.7
S117A	88.2
D92N	91.1
N85Q	104
Y141E	8.52
E38A	97.5
L169E	-14.9
A30I	98.3
Q7H	99.6
V143D	7.18
H55A	105
A13H	97.6
Y18L	91.6
N165G	47.5
E130A	112
Q2P	94.7
L112S	-0.888
R90A	86.6
F56G	39.8
V40D	-7.53

Study 3
Target: RNA binding protein fox-1 homolog 2, RRM domain, GST-SBP tag (RBFOX2, Homo sapiens, UniProt O43251-10, residues 100-194)
Method: RNA Bind-n-Seq
Molecule type: RNA
Matrix: in vitro
Concentration: 365 nM
Notes: natural RNA segment, single round, ends assumed
Baseline: no-protein control
Direction: higher = stronger binding
Shared flanks, not repeated: GGGAGUUCUACAGUCCGACGAUC … UGGAAUUCUCGGGUGCCAA
Residues (chain): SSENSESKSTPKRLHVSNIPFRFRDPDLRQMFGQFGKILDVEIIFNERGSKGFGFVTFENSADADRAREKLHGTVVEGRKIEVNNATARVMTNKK
Sequence	RBNS enrichment (R)
AUGAUGGGCAGCAGGUGGCGCUGCCUUCCACCCAUGGUGAUGGAUGGUUUGGAAAGGGAAUGUUGGUGCCUUUUGUGCCACAAGUUAAGAUGCUACUGUUUUAAAGGAAA	0.955
CAAGCACUUGUGGGUUUUUGUUUUGUUUUUCAUUCAGUCUUACGAAUACUUUUGCCCUUUGAUUAAAGACUCCAGUUAAAAAAAAUUUUAAUGAAGAAAGUGGAAAACAA	0.992
CGUCAUGUUUAGAGCUGAAGGAGUCUUCAUAGCCCAGGCUGUCCUGGGUAUUGCAGGAUGCUGAUUGAACAGCACCUGUGACCUUUCCUGCUCCAUGCCACUAGCAACCU	0.229
AUGCUACAAACAUGUCUACCCAGGGUACCACUGAGCUACGUCUUCCUCAUGGGGCAGACGUGAUUGGCUCACAGUUGAAGUCAAAUCACUGCUUGGGCUGCUUGUAGCGG	0.229
GCCCUGGCUUCUCUGAGGAAGCUGGGGUUCAUGACAAUGGCAGAUGUAAAGUUAUUCUUGAAGUCAGAUUGAGGCUGGGAGACAGCCGUAGUAGAUGUUCUACUUUGUUC	0.34
UUGAAUCUGUAAAUUACCUUGGGCAGUAUGGCCAUUUUCACAAUAUUGAUUCUUCCUACCCAAGAGCAUGGAAUGUUCUUCCAUUUGUUUGUAUCCUCUUUUAUUUCCUU	0.93
CCCGAGAACGAGGAAGAUGGAUGUCCCAGCUCCCAAAGGGAGGAUUCUCCCUUCCUCCUCCUUCUUUUCUAUUGGGGCCCUCAACAGAUUGGAUGGAGUGGAUGUCUUCA	0.355
GUUGAAGCUUGAUUUGACCACGCUGUAAUCUCCAGCCUACUGCCAAGUGCAGGGGCCUCCCUACGUUCUGUACCCUAAAUCCCAAGGUCAGGUUGGGGACCAACCUUGGG	1.11
GGUCUGAGUCUUCUGGAGCUGUGUAGUUAAUCUUCGGUUUCUGAUAACCCCUGGGUCCAUCUGGCCAUCAGCCUCAGCAGUGAGCAAAGCAAUACCAUACUCAUUUCUAU	0.289
GCUUGUGCACCGCCAGCUUCUGUCUCCAGAAAAGUGUAACUUUGCUCUGUUUCUGCAUGAAGCACACAUACUCUGGUGUCAACACGCUAAGUAGUUUAAAUGAGGGAAAG	4.57
GGUGUCACGGCACACAUUUACUCUGCAUUGUCCCCGUCUUUCCCAUCGCCUAGCGUUUGGGGAGGAACAGGGAGAGAGCUUCGGGGCGUCUGUCUCCGUGCUCUCCUGCC	0.189
CUUGAUGUUAUGCAGGAAGUACAAAAGUACUUUAAAAUUUUGUUAUGAAAUAAAAAAAAAAAGGAUGGGUUUUGUAAAAAUAAUAAAAAAAAUAUUUUUAGCAGAACAGG	9.76

Study 4
Target: CCNF, cyclin fold, Cln2 fusion (human)
Method: yeast growth competition, sequencing
Matrix: yeast
Notes: strong parent motif
Baseline: not given
Direction: higher = stronger binding
Starting sequence: CDKN1A docking peptide (human); SKACRRLFGPVDS
Variant	normalised enrichment score
SPACRRLFGPVDS [K2P]	7.19
SKACRRLFGIVDS [P10I]	6.76
SKACRRLFEPVDS [G9E]	7.05
SKANRRLFGPVDS [C4N]	6.8
SKACRRDFGPVDS [L7D]	0.0836
SKACRRLFGPIDS [V11I]	7.7
SKACRRLFGPVTS [D12T]	7.34
SNACRRLFGPVDS [K2N]	7.94
SKACRRLFGYVDS [P10Y]	6.99
SKACRRLFGPKDS [V11K]	7.25
SKACRRLFGEVDS [P10E]	7.42
SKACRRKFGPVDS [L7K]	0.75
SKAQRRLFGPVDS [C4Q]	7.17
SKACRWLFGPVDS [R6W]	1.53
SKACRRLFGCVDS [P10C]	6.53
SKACRRLFGDVDS [P10D]	7.29
SKAMRRLFGPVDS [C4M]	4.49
SKACRRLFGPRDS [V11R]	7.17
SKVCRRLFGPVDS [A3V]	8.5
SKACRILFGPVDS [R6I]	5.16
SKACYRLFGPVDS [R5Y]	0.497
SKACRRSFGPVDS [L7S]	0.0729
SKACRRLFGPVPS [D12P]	7.96
SKACRRLFGPVGS [D12G]	7.21
SKACRRLFGTVDS [P10T]	6.94

Study 5
Target: Histone acetyltransferase KAT6A, winged helix 2, GST fusion (KAT6A, Homo sapiens, UniProt Q92794, residues 85-181)
Method: protein binding microarray
Molecule type: double-stranded DNA, one strand shown
Matrix: in vitro
Concentration: not given
Notes: 8-mer, flanks averaged, mean of 2 arrays, mostly near background
Baseline: not given
Direction: higher = stronger binding
Residues (chain): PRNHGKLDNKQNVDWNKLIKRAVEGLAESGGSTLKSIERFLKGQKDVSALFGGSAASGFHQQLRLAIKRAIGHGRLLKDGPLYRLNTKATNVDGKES
Sequence	E-score
GGTACACC	-0.0779
TCGGATAA	0.00832
AGTCCGTA	-0.111
GGCACACC	-0.153
CCAGGTAC	0.0548
ATTAGCTG	0.0149
AAGAAGTC	-0.0252
CTGGTGGA	-0.101
AAGTTAGT	0.0517
TCCACCCA	-0.108
TCGGACAA	0.0845
GATTGCGA	0.227
CAAGTGCG	0.0389
CTGGGTAA	0.105
CCAGACTC	-0.0453
ATGATGGA	-0.147
CGTGCAAC	0.0523
CTGCCGTC	0.189
ACCACTGG	0.0359
AACCGATA	0.0713
AGACAGCT	-0.117
CCAGGCAA	0.141
CGGAGGTC	0.105
CAGCATCA	0.176

Further values, each from its own experiment
Substance	target	test	system	conditions	how to read	measurement	result
PhoQ, residues 284 288 289 292 302 303 AGHLVA	PhoP, residues 12 14 15 18 19 MHTVL (Escherichia coli, UniProt P23836)	Sort-seq, refers to: YFP reporter	E. coli	PhoQ-PhoP variant library, with: 10 µM Mg2+	baseline: high Mg2+ state, higher = stronger signaling	fold induction	11.2

Some of these lines once more (study 4):
Variant	normalised enrichment score
SKACYRLFGPVDS [R5Y]	0.497
SKACRRLFGYVDS [P10Y]	6.99
SKACRRKFGPVDS [L7K]	0.75
SKACRRLFGCVDS [P10C]	6.53
SNACRRLFGPVDS [K2N]	7.94
SKACRRLFGDVDS [P10D]	7.29
SKVCRRLFGPVDS [A3V]	8.5
SKACRRLFEPVDS [G9E]	7.05
SKACRRLFGPKDS [V11K]	7.25
SKACRRLFGEVDS [P10E]	7.42
